Measurements collected from several papers.
Numbered parts are unrelated; each lists some results of a single study. Positions count from the first letter of the parent shown.

Study 1 — target: CEP164, C-terminal peptide (human); method: DHFR complementation, deep sequencing; sample: yeast; reference: wild type; reading: higher = weaker binding
Notes: single substitutions, model-inferred values
Starting sequence: PDZK1, PDZ domain 2 (human); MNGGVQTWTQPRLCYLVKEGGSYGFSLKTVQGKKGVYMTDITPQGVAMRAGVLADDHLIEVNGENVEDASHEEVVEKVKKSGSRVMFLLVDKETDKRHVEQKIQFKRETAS; partner HNRVKVYRF
Substitution | binding free energy change
V99R | -0.288 kcal/mol
K92F | 0.0257 kcal/mol
L27T | 0.472 kcal/mol
G63H | 0.038 kcal/mol
T109R | -0.323 kcal/mol
K33A | 0.19 kcal/mol
L88S | -0.00181 kcal/mol
L27M | 0.762 kcal/mol

Study 2 — method: universal PBM; form: double-stranded DNA, one strand shown; sample: in vitro; concentration: 600 nM; reading: higher = stronger binding
Target: Sal-like protein 4, full length isoform A (SALL4, Homo sapiens, UniProt Q9UJQ4, residues 1-1053)
Chain of UniProt Q9UJQ4 (whole entry, looked up): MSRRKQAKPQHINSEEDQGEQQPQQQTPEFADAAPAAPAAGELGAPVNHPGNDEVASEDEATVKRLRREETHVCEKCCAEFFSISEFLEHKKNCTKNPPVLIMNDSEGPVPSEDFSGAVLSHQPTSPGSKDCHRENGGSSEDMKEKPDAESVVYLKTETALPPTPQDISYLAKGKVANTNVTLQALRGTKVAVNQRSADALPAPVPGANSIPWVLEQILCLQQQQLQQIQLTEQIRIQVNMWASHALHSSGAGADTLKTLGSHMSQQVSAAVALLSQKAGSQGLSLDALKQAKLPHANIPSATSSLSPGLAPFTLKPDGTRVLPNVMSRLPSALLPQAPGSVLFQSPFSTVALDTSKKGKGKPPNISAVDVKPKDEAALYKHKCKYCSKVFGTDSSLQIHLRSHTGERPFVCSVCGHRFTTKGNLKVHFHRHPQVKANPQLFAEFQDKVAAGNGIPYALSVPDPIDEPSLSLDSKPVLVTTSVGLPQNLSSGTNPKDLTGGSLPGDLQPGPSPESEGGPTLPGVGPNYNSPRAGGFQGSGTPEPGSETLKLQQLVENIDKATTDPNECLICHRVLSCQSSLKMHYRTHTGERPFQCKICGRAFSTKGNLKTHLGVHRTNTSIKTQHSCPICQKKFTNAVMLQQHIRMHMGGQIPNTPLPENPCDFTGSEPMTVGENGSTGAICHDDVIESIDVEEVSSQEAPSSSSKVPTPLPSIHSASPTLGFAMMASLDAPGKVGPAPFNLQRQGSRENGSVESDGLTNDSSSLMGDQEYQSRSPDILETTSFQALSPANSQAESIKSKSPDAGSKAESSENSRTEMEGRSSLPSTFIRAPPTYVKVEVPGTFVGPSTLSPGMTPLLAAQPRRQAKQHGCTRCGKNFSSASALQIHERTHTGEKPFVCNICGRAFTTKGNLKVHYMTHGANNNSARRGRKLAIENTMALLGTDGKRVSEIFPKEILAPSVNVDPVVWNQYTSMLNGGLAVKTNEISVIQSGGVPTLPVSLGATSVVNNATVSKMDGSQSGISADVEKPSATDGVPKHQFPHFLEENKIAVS
Notes: 8-mer, flanks averaged, mean of replicates
Sequence | E-score
ACTAAGCA | 0.0477
CTGTCAAG | -0.0668
ACTTGTTC | 0.0711
GAGCCTGC | -0.219
GAGATCTA | 0.0704
GTGAGGAA | -0.0321
CGTTCCCC | -0.211
TAGCTAGA | 0.00154

Study 3 — method: RNAcompete; form: RNA; sample: in vitro; concentration: 20 nM; notes: 7-mer, probes averaged, single round; reference: mean of 7-mers; reading: higher = stronger binding
Target: PABPC1L2, full length, GST fusion (mouse, UniProt A0ABA7IW68)
Target sequence (chain): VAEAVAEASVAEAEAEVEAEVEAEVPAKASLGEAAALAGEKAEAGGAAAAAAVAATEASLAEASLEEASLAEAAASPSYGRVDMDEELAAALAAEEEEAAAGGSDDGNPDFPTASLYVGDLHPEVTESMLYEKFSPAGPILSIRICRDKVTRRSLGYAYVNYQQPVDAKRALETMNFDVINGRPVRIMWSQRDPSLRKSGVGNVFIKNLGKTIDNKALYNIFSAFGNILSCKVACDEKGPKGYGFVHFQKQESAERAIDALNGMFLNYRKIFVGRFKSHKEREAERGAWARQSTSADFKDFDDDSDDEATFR
Sequence | 7-mer Z-score
UCUGUCG | -0.304
CUUCCUU | -0.356
AUACAAC | 0.211
AAUAUUC | -0.171
UGCAGCC | -0.237
UACACCC | -0.248
AACGGUA | 0.287
GGUCCAA | 0.0515

Mixed results — starting sequence: viral docking peptide; CKVKRKLFGSENI
Substitution | target | test | system | setting | scale | measurement | result
E11A | CCNB1, cyclin fold, Cln2 fusion (human) | yeast growth competition, sequencing | yeast | weak parent motif | reference: not given, higher = stronger binding | normalised enrichment score | 0.646

For quick reference, copied from above (study 3):
Sequence | 7-mer Z-score
UGCAGCC | -0.237
UACACCC | -0.248
AACGGUA | 0.287
GGUCCAA | 0.0515
